Results collected from several papers.
Each numbered part is a random draw from the data of one study; scales do not carry over between parts. Positions count from the first letter of the parent shown.

Study 1
Target: CCNB3, cyclin fold, Cln2 fusion (human)
Technique: yeast growth competition, sequencing
Medium: yeast
Notes: strong parent motif
Baseline: not given
Direction: higher = stronger binding
Parent: viral docking peptide; TSVRRALFTGGSD; partner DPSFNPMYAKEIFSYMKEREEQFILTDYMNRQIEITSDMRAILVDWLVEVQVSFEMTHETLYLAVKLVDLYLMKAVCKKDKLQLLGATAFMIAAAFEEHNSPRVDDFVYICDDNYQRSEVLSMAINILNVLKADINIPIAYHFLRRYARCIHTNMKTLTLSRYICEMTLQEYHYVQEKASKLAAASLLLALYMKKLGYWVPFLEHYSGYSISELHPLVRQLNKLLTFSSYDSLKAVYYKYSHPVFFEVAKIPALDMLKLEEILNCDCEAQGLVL
| Variant | normalised enrichment score |
| --- | --- |
| R4F | 0.835 |
| A6E | 0.449 |
| T9R | 1.35 |
| V3E | 0.0622 |
| G10I | 1.56 |
| D13A | 1.4 |
| S12G | 1.63 |
| G11C | 2.01 |
| G10S | 2.5 |
| S2W | 0.89 |
| R5K | 0.95 |
| S12N | 2 |
| G11W | 1.03 |
| S2N | 2.3 |
| V3A | 0.804 |
| L7R | 0.251 |
| A6V | 3.63 |
| G11Q | 2.08 |
| T9F | 2.13 |
| F8S | 0.24 |
| R4N | 0.328 |
| F8C | -0.075 |
| G11R | 1.23 |
| R4I | 0.981 |
| L7D | 0.0319 |

Study 2
Target: inorganic phosphate, free oxyanion
Technique: microfluidic competitive inhibition
Medium: in vitro, cell-free expressed
Tested at: not given
Notes: derived from inhibition constants, unchanged parent 615000 nM
Direction: lower = stronger binding
Parent: PafA, mature enzyme, eGFP fusion (Elizabethkingia meningoseptica, UniProt Q9KJX5); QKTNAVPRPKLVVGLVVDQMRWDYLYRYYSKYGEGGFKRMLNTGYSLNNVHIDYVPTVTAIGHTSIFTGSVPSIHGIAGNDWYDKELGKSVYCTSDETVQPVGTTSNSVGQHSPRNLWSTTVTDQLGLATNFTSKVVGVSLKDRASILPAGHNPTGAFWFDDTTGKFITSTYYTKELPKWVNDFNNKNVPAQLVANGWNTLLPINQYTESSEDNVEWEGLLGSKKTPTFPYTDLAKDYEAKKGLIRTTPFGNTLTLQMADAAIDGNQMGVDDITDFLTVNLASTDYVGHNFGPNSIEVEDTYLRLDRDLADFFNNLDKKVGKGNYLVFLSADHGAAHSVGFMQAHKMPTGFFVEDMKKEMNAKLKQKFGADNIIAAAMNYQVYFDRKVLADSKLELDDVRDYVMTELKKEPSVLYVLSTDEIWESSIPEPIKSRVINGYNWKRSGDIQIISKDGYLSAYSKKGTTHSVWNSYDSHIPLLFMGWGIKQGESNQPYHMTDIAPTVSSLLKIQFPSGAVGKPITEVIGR
| Variant | phosphate dissociation constant [µM] |
| --- | --- |
| A129V | 452 |
| S210G | 492 |
| L256G | 383 |
| N266V | 657 |
| T497V | 376 |
| S46G | 473 |
| T155G | 548 |
| P101V | 623 |
| L316V | 561 |
| R304G | 439 |
| M268V | 571 |
| R526G | 594 |
| Q267V | 696 |
| W180V | 444 |
| M20G | 380 |
| Y28V | 598 |
| G243V | 533 |
| L396V | 665 |

Study 3
Target: Histone acetyltransferase KAT6A, both winged helices, GST fusion (KAT6A, Homo sapiens, UniProt Q92794, residues 1-181)
Technique: protein binding microarray
Form: double-stranded DNA, one strand shown
Medium: in vitro
Tested at: not given
Notes: 8-mer, flanks averaged, mean of 2 arrays, mostly near background
Baseline: not given
Direction: higher = stronger binding
Residues (chain): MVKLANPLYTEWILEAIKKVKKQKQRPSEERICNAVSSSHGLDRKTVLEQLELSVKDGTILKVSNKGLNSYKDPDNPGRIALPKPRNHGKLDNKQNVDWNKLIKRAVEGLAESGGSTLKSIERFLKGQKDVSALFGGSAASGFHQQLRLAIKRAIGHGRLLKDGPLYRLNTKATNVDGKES
| Oligonucleotide | E-score |
| --- | --- |
| GAACTCAC | -0.209 |
| CAGTCAGG | -0.203 |
| CATACTAG | -0.175 |
| GATTGAGC | 0.0263 |
| CTGGATTC | -0.0777 |
| TAGTAGGA | -0.153 |
| AACACCGG | 0.221 |
| ACGCGCTC | 0.298 |

Study 4
Target: CREBL2, bZIP domain (human)
Technique: DHFR protein complementation
Medium: yeast
Notes: single substitutions, most at no-binding floor
Baseline: wild-type JUN-FOS pair
Direction: higher = stronger binding
Parent: JUN, bZIP domain (human); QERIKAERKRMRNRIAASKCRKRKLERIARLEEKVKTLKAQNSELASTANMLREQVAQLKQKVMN; partner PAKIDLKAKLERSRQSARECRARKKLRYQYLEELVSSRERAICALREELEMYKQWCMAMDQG
| Variant | binding fitness [natural log] |
| --- | --- |
| Q41G | -1.49 |
| R30Y | -1.33 |
| K34W | -1.58 |
| L38C | -1.55 |
| A46W | -1.42 |
| A29K | -1.28 |
| R30W | -1.42 |
| R53Q | -1.45 |

Some of these lines once more (study 3):
| Oligonucleotide | E-score |
| --- | --- |
| CAGTCAGG | -0.203 |
| CATACTAG | -0.175 |
| GAACTCAC | -0.209 |
| CTGGATTC | -0.0777 |
| GATTGAGC | 0.0263 |
